Measured values gathered from unrelated publications.
Lines come from different studies, so protocols differ. ± gives the spread as reported.

Structure (SMILES) = CCN(CC)CCN(C)c1ccc(Nc2cc(NC3CC3)n3ncc(C#N)c3n2)cc1NC(C)=O; organism = murine hepatitis virus; test = viral replication, nanoluciferase reporter; system = DBT; conditions = 10 h; IC50 = 0.0251 µM
Structure (SMILES) = CC(=O)CCC1C(=O)NC(C(C)C)C(=O)NC(Cc2cccc(O)c2)C(=O)N2CCCC(N2)C(=O)OC(C(C)=CC=CC(=O)N2CCCCO2)CC=CC=CC(O)C(C)C1O (stereo not drawn); organism = hepatitis B virus; test = viral replication, refers to: HBsAg; system = HBV stable cell line; IC50 = 0.6 µM
Structure (SMILES) = O=P(O)(OCc1ccc(-c2ccccc2)cc1)Oc1c2c(c(OP(=O)(O)OCc3ccc(-c4ccccc4)cc3)c3c1C1CC3c3cc4c(cc31)C1CC4c3ccccc31)C1CC2c2cc3c(cc21)C1CC3c2ccccc21; organism = human respiratory syncytial virus; test = viral infection, GFP reporter, flow cytometry; system = A549; conditions = virus pretreated 30 min; IC50 = 9.7 µM
Structure (SMILES) = CC[C@H](C)[C@H](NC(=O)[C@H](Cc1ccccc1)NC(=O)[C@H](CC(=O)O)NC(=O)[C@H](CCCCN)NC(=O)[C@H](C)NC(=O)[C@H](CCCCN)NC(=O)[C@H](CC(N)=O)NC(=O)[C@H](CC(C)C)NC(=O)[C@H](Cc1c[nH]c2ccccc12)NC(=O)[C@H](CCC(=O)O)NC(=O)[C@H](CCCCN)NC(=O)[C@@H](NC(=O)CNC(=O)[C@H](C)N)[C@@H](C)O)C(=O)N[C@@H](CCCCN)C(=O)N[C@@H](CCC(=O)O)C(=O)N[C@@H](CCCCN)C(=O)NCC(=O)N1CCC[C@H]1C(=O)NCC(=O)N[C@@H](CCSC)C(=O)N[C@@H](CC(C)C)C(=O)N[C@@H](CO)C(=O)N[C@@H](C)C(=O)N[C@@H](C)C(=O)N[C@@H](C)C(=O)N[C@@H](CC(N)=O)C(=O)N[C@@H](C)C(=O)N[C@@H](C)C(=O)N[C@@H](CC(C)C)C(=O)N[C@@H](CC(N)=O)C(=O)O; organism = Haemonchus contortus; test = larval development; system = Kirby isolate; conditions = 6 days, 26 °C; IC50 = 52.1 ± 11.8 µM
Structure (SMILES) = O=P(O)(OCc1cccc2ccccc12)Oc1c2c(c(OP(=O)(O)OCc3cccc4ccccc34)c3c1C1CC3c3cc4c(cc31)C1CC4c3ccccc31)C1CC2c2cc3c(cc21)C1CC3c2ccccc21; organism = human respiratory syncytial virus; test = viral infection, GFP reporter, flow cytometry; system = A549; conditions = virus pretreated 30 min; IC50 = 6 µM
Structure (SMILES) = CC[C@H](C)[C@H](NC(=O)[C@H](CC(C)C)NC(=O)CNC(=O)[C@H](Cc1c[nH]cn1)NC(=O)[C@@H](NC(=O)[C@H](Cc1ccccc1)NC(=O)[C@H](CC(N)=O)NC(=O)[C@H](Cc1c[nH]c2ccccc12)NC(=O)[C@@H](NC(=O)[C@H](Cc1c[nH]cn1)NC(=O)[C@H](Cc1c[nH]cn1)NC(=O)[C@H](Cc1c[nH]c2ccccc12)NC(=O)[C@@H](N)CC(C)C)[C@@H](C)CC)C(C)C)C(N)=O; organism = Herpes simplex virus 1; test = virus inactivation, plaque reduction; system = Vero, F; conditions = 37 °C; IC50 = 1.01 µg/mL
Structure (SMILES) = CC(=O)OC[C@H]1O[C@@H](NC(=O)NC(=O)[C@@H](C)Cc2ccc(C(C)C)cc2)[C@H](OC(C)=O)[C@@H](OC(C)=O)[C@@H]1OC(C)=O; organism = Sindbis virus; test = cytopathic effect; system = Vero; IC50 = 58 µM
Structure (SMILES) = CC[C@H](C)[C@H](NC(=O)[C@H](CC(C)C)NC(=O)CNC(=O)[C@H](Cc1c[nH]cn1)NC(=O)[C@@H](NC(=O)[C@H](Cc1ccccc1)NC(=O)[C@H](CC(N)=O)NC(=O)[C@H](Cc1c[nH]c2ccccc12)NC(=O)[C@@H](NC(=O)[C@H](Cc1c[nH]cn1)NC(=O)CNC(=O)[C@H](Cc1c[nH]c2ccccc12)NC(=O)[C@@H](N)CC(C)C)[C@@H](C)CC)C(C)C)C(N)=O; organism = Herpes simplex virus 1; test = virus inactivation, plaque reduction; system = Vero, F; conditions = 37 °C; IC50 = 1.5 µg/mL
Structure (SMILES) = CC(C)C[C@H](NC(=O)CNC(=O)c1cc(Cl)ccc1Cl)B(O)O; organism = Babesia divergens; test = parasite growth; system = bovine erythrocyte culture; conditions = 48 h, starting parasitemia 2%; IC50 = 0.35 ± 0.035 µM

For quick reference, copied from above:
Structure (SMILES) = CC(=O)OC[C@H]1O[C@@H](NC(=O)NC(=O)[C@@H](C)Cc2ccc(C(C)C)cc2)[C@H](OC(C)=O)[C@@H](OC(C)=O)[C@@H]1OC(C)=O; organism = Sindbis virus; test = cytopathic effect; system = Vero; IC50 = 58 µM
